Measured values collected from several papers.
Lines come from different studies, so protocols differ.
Target: Serine/threonine-protein kinase SIK1 (SIK1, Homo sapiens, UniProt P57059)
Sequence of UniProt P57059 (whole entry, looked up): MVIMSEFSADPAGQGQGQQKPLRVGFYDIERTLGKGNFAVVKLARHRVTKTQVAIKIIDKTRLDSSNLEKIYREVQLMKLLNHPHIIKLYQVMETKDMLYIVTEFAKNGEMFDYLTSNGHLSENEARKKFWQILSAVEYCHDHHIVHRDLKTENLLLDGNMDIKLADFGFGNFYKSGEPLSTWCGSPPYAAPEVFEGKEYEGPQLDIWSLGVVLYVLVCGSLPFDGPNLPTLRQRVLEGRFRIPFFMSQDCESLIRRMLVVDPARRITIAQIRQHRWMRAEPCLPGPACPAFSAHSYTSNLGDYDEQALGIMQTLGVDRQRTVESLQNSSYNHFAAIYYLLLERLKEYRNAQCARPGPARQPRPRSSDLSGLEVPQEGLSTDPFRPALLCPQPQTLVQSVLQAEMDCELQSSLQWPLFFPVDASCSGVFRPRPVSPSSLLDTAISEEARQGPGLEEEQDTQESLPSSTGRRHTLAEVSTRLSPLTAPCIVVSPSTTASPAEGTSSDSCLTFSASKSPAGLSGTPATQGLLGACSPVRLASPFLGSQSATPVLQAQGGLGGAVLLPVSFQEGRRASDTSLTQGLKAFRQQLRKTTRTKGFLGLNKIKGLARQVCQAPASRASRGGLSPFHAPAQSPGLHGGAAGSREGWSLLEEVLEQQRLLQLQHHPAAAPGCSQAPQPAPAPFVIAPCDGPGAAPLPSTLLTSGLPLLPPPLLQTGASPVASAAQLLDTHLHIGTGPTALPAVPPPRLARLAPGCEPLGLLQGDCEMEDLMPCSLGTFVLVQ

`C=CC(=O)N1CCC(COCC(=O)N2CCN(c3nc(-c4cnc(N)nc4C(F)F)nc(N4CCOC[C@@H]4C)n3)CC2)CC1` gave a remaining binding of 100% (KINOMEscan; 1 µM; reference: DMSO control).
For `CSc1nc(C)c(-c2ccnc(Nc3ccc(N4CCOCC4)cc3)c2)[nH]1`, the inhibition was 21.6% (kinase activity; 10 µM).
`Nc1ncnc2occ(-c3ccc(NC(=O)Nc4cc(C(F)(F)F)ccc4F)cc3)c12` has a remaining activity of 33% (enzyme activity, inhibitor; 20 µM).
`COc1ncc2cc3ccccc3nc2c1C#N` gave a remaining binding of 97% (KINOMEscan; 5 µM; reference: DMSO).
`FC(F)(F)Oc1cccc(-c2cnc3ccc(-c4ccncc4)nn23)c1` gave a remaining binding of 74% (KINOMEscan competition binding; 5 µM).
For `COc1cnc(Nc2cccc(S(N)(=O)=O)c2)nc1N1CCN(c2ccccc2)C(=O)C1`, the remaining binding was 100% (KINOMEscan; 1 µM).
The remaining binding of `O=C(c1ccc(Nc2ncc(Cl)c(-c3ccc(Cl)s3)n2)cc1)N1CCC(N2CCCC2)CC1` is reported as 92% (binding, KINOMEscan competition binding; 1 µM; reference: DMSO control).
With `CCN1CCN(Cc2ccc(C(=O)Nc3ccc(C)c(Oc4ccc5c(c4)CC(=O)N5)c3)cc2C(F)(F)F)CC1` the remaining binding was 100% (KINOMEscan; 1 µM).
The remaining activity of `COc1cc(N2CCN(C)CC2)ccc1Nc1nc(N)n(C(=S)NCc2c(Cl)cccc2Cl)n1` is reported as 0.15% (enzyme activity; 10 µM; reference: control).
For `C[C@@H](c1ccc(-n2cnc3c(N)ncnc32)cc1)N1CCc2nn(C)c(Cc3ccccc3)c2C1=O`, the remaining binding was 43% (KINOMEscan; 0.1 µM; reference: DMSO control).
`Cc1cnc(Nc2ccc(C(=O)N3CCC(N4CCCC4)CC3)cc2)nc1-c1cc2ccccc2s1` has a remaining binding of 58% (binding, KINOMEscan competition binding; 1 µM; reference: DMSO control).
`O=C(Nc1c[nH]nc1C(=O)NC1CCNCC1)c1cc(F)cc(F)c1` gave a remaining binding of 97% (scanMAX; 1 µM; reference: untreated).
`COc1cc(N2CCN(C)CC2)ccc1Nc1nc(N)n(C(=O)NCc2ccccc2S(=O)(=O)C(C)C)n1` gave a remaining activity of 31% (enzyme activity; 10 µM; reference: control).
The remaining activity of `CCN(CC)c1ccc(C2=NNC(=O)CC2C)cc1[N+](=O)[O-]` (stereo not shown) is reported as 112% (enzyme activity, inhibitor; 10 µM; reference: vehicle).
With `O=C(NCCCN1CCOCC1)c1ccc(Nc2ncc(Cl)c(-c3ccc(Cl)s3)n2)cc1` the remaining binding was 78% (binding, KINOMEscan competition binding; 1 µM; reference: DMSO control).
`COc1cc(-c2cncc3c2CN(C)Cc2cc(N4CCNCC4)ccc2-3)cc(OC)c1OC` gave a remaining activity of 92% (kinase activity; 1 µM, human enzyme, together with: ATP 10 µM; reference: DMSO control).

Excerpt of the above:
For `CSc1nc(C)c(-c2ccnc(Nc3ccc(N4CCOCC4)cc3)c2)[nH]1`, the inhibition was 21.6% (kinase activity; 10 µM).
`Nc1ncnc2occ(-c3ccc(NC(=O)Nc4cc(C(F)(F)F)ccc4F)cc3)c12` has a remaining activity of 33% (enzyme activity, inhibitor; 20 µM).
